# Measured values collected from several papers.
Structure (SMILES),test system,conditions,tumour growth inhibition [%]
N#Cc1cccc(-c2ccc(=O)n(Cc3cccc(-c4ncc(OCC5CCN(CC(=O)N6CCN(c7ccc8c(c7)C(=O)N(C7CCC(=O)NC7=O)C8=O)CC6)CC5)cn4)c3)n2)c1 (stereo not shown),mouse Hs746T xenograft,"oral, 20 mg/kg daily, 12 days",91.6
CN1Cc2cnc3ccc(-c4ccc(N)nc4)nc3c2N(c2cccc(C(F)(F)F)c2)C1=O,"PC-3 xenograft, mouse","oral, 15 mg/kg once daily, 14 days",37.3
Cc1ccc(CN2C(=O)/C(=N\c3ccc(Cl)cc3Br)c3ccccc32)cc1,"mouse, B16-F10 tumour","intraperitoneal, 20 mg/kg",76.1
Cc1cc(NC(=O)[C@H](O)c2cc(F)cc(F)c2)ccc1-c1cnc(N)c(C(=O)NC(C)C)c1,mouse 786-O xenograft,"oral, 30 mg/kg twice daily, 28 days",48
Brc1ccc(Nc2nc(NN=Cc3c[nH]c4ccccc34)nc(N3CCOCC3)n2)cc1,mouse A549 xenograft,"ip, 70 mg/kg daily, 14 days",45
C=CC(=O)N1C[C@H](C)N(c2nc(OC[C@@]34CCCN3C[C@H](F)C4)nc3c(F)c(-c4ccc(F)c5sc(N)c(C#N)c45)c(C(F)(F)F)cc23)C[C@H]1C,mouse MIA PaCa-2 xenograft,"oral, 1 mg/kg daily, 28 days",69
CN1CCC(N[C@@H]2CCc3[nH]c4c(C(N)=O)ccc(-c5ccccc5Cl)c4c3C2)CC1,NOD/SCID mouse H446 xenograft,"intravenous, 10 mg/kg every three days",85
Cc1cc(O)cc(O)c1C(=O)c1c2c3c(c(O)cc(C)c3oc1=O)C(=O)c1c(O)cc(O)cc1-2,"H22 subcutaneous, mouse","intraperitoneal, 15 mg/kg daily",62
O=c1[nH]c(N2CCC3(CC2)CN(CCO)c2cc(F)cc(F)c23)nc2c1CCCC2,"mouse, COLO 320DM xenograft","intraperitoneal, 150 mg/kg twice daily, 11 days",47.2
CC(=O)Oc1c2c(c3ccc4c(c3c1OC(C)=O)C=CC(=O)C4(C)C)OC[C@@H]2C,mouse 4T1 tumour,"intravenous, 10 mg/kg daily",61.5
NC(=O)c1cccnc1.O.O=c1[nH]cc(F)c(=O)[nH]1.O=c1[nH]cc(F)c(=O)[nH]1.O=c1[nH]cc(F)c(=O)[nH]1,nude mouse HCT-116 xenograft,"0.018 mmol/kg/day, 21 days",39.2
N#Cc1cccc(-c2ccc(=O)n(Cc3cccc(-c4ncc(OCC5CCN(CC(=O)NCCOCCNc6ccc7c(c6)C(=O)N(C6CCC(=O)NC6=O)C7=O)CC5)cn4)c3)n2)c1 (stereo not shown),mouse Hs746T xenograft,"oral, 40 mg/kg daily, 12 days",88.5
CN1CCN(c2ccc(Nc3ncc(Cl)c(Nc4ccccc4P(C)(C)=O)n3)cc2Br)CC1,"mouse, PC9-OR xenograft","oral, 60 mg/kg once daily, 14 days",137

# Some of these lines once more:
Structure (SMILES),test system,conditions,tumour growth inhibition [%]
O=c1[nH]c(N2CCC3(CC2)CN(CCO)c2cc(F)cc(F)c23)nc2c1CCCC2,"mouse, COLO 320DM xenograft","intraperitoneal, 150 mg/kg twice daily, 11 days",47.2
CC(=O)Oc1c2c(c3ccc4c(c3c1OC(C)=O)C=CC(=O)C4(C)C)OC[C@@H]2C,mouse 4T1 tumour,"intravenous, 10 mg/kg daily",61.5
